Published values of several laboratories.
Parts stem from different laboratories: compare values within a part only.

Block 1
Target: Histone acetyltransferase KAT6A, winged helix 2, GST fusion (KAT6A, Homo sapiens, UniProt Q92794, residues 85-181)
Method: protein binding microarray
Form: double-stranded DNA, one strand shown
Sample: in vitro
Concentration: not given
Notes: 8-mer, flanks averaged, mean of 2 arrays, mostly near background
Reference: not given
Reading: higher = stronger binding
Residues (chain): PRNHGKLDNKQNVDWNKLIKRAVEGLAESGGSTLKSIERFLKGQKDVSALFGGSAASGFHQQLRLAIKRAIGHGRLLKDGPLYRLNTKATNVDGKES
| Strand | E-score |
| --- | --- |
| ACCCAAAA | 0.148 |
| AATTTAAT | 0.177 |
| ATCTGTCG | 0.0923 |
| ATGGTAAA | -0.0979 |
| CGATAAAA | 0.107 |
| GATAACGC | -0.0827 |

Block 2
Target: Centromere-binding protein 1, full length, His-tagged (CBF1, Saccharomyces cerevisiae, UniProt P17106, residues 1-351)
UniProt P17106, sequence (whole entry, looked up): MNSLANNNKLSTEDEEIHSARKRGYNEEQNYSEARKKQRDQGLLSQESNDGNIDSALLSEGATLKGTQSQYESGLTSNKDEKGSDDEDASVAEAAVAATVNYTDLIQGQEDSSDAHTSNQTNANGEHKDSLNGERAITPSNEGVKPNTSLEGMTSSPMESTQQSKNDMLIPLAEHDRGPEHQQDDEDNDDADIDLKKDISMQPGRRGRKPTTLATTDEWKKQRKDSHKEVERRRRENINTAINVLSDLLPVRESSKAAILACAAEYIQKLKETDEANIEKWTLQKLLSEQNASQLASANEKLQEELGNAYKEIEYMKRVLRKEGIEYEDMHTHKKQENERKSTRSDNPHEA
Method: competition protein-binding microarray
Form: double-stranded DNA, one strand shown
Sample: in vitro
Concentration: 2 µM
Notes: whole 60-bp probe, lowest competitor level
Together with: Pho4 competitor, 0.05 µM
Reading: higher = stronger binding
All sequences stand within: … GTCTTGATTCGCTTGACGCTGCTG
| Strand | fluorescence intensity |
| --- | --- |
| GTCTTGTCTCATTGGAGCGTGGGTGTCCCCACTTCA | 73.3 a.u. |
| CTTCTGTAAATTTGTCACTTTACTTGACGCGCCCCG | 93.5 a.u. |
| CGCTGCAGCCGCTGCCACGCGTTCCCCGCCCGAGCC | 63.6 a.u. |
| AAAGCGGTAATTTTTCACGTGCTTTCACATATCTAT | 1270 a.u. |
| CTCGTTCAGACGAGTCACGTCGGTAGCCAGACCGGT | 105 a.u. |
| AATCAGCTTATTCAGCTCGTGGAAGGTTGTCCAGTC | 70.1 a.u. |
| CTTTCCCGATCTTGGGATGTGGGTGTAGCACATTTG | 59.2 a.u. |

Block 3
Target: Sal-like protein 4, full length isoform B (SALL4, Homo sapiens, UniProt Q9UJQ4-2, residues 1-616)
Method: universal PBM
Form: double-stranded DNA, one strand shown
Sample: in vitro
Concentration: not given
Notes: 8-mer, flanks averaged, mean of replicates
Reading: higher = stronger binding
| Strand | E-score |
| --- | --- |
| GATCGGCA | -0.062 |
| GCCGTACA | -0.0563 |
| CGCGGCCG | -0.41 |
| ACGGCACT | -0.206 |
| GGCAATTA | 0.192 |
| ATGTAGGC | -0.0205 |
| GAAGCCGC | -0.169 |

Further values, each from its own experiment
| Molecule | target | assay | test system | setting | how to read | quantity | value |
| --- | --- | --- | --- | --- | --- | --- | --- |
| PhoQ, residues 284 288 289 292 302 303 TASMAF | PhoP, residues 12 14 15 18 19 NFCKL (Escherichia coli, UniProt P23836) | Sort-seq, refers to: YFP reporter | E. coli | PhoQ-PhoP variant library, together with: 10 µM Mg2+ | reference: high Mg2+ state, higher = stronger signaling | fold induction | 3.38 |

Some of these lines once more (block 1):
| Strand | E-score |
| --- | --- |
| ATGGTAAA | -0.0979 |
| ATCTGTCG | 0.0923 |
